Assay results gathered from unrelated publications.
Parts stem from different laboratories: compare values within a part only.

Block 1
Target: Histone acetyltransferase KAT6A, both winged helices, GST fusion (KAT6A, Homo sapiens, UniProt Q92794, residues 1-181)
Technique: protein binding microarray
Molecule type: double-stranded DNA, one strand shown
Medium: in vitro
Concentration: not given
Setting: 8-mer, flanks averaged, mean of 2 arrays, mostly near background
Relative to: not given
Direction: higher = stronger binding
Residues (chain): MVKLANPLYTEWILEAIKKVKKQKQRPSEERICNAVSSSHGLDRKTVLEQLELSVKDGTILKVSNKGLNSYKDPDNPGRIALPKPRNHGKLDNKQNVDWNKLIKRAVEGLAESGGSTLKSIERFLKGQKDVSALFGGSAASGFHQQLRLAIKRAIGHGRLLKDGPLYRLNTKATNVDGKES
Oligonucleotide	E-score
AACCGCGG	0.382
ACAATACC	-0.0601
ATATAGGC	0.0245
AGATATGC	-0.00239
CGTACGAA	0.121
CGGCGCGA	0.326

Block 2
Target: Prothrombin, mature alpha-thrombin (F2, Homo sapiens, UniProt P00734)
Technique: aptamer microarray, sandwich
Molecule type: DNA with 2'F-ANA
Medium: in vitro
Concentration: 200 nM
Setting: whole 15-mer aptamer, many near background
With: Cy3 exosite-II aptamer, 400 nM
Direction: higher = stronger binding
Oligonucleotide: GGTTGGTGTGGTTGG
Modification	mean fluorescence intensity [a.u.]
2'F-ANA at 1 3 6 13 15	208
2'F-ANA at 2 3 4 5 7 12 13 15	107
2'F-ANA at 1 2 4 8 9 10 11 12 13	55.3
2'F-ANA at 1 2 3 4 6 8 9 10 13 14 15	52.4
2'F-ANA at 2 4 6 8 9 10 12 14	113

Block 3
Target: Interferon regulatory factor 7, full length, phosphomimetic (IRF7, Homo sapiens, UniProt Q92985, residues 1-503, S471D/S472D/S475D/S476D/S477D/S483D/S484D/S487D)
UniProt Q92985, sequence (whole entry, unmodified, looked up): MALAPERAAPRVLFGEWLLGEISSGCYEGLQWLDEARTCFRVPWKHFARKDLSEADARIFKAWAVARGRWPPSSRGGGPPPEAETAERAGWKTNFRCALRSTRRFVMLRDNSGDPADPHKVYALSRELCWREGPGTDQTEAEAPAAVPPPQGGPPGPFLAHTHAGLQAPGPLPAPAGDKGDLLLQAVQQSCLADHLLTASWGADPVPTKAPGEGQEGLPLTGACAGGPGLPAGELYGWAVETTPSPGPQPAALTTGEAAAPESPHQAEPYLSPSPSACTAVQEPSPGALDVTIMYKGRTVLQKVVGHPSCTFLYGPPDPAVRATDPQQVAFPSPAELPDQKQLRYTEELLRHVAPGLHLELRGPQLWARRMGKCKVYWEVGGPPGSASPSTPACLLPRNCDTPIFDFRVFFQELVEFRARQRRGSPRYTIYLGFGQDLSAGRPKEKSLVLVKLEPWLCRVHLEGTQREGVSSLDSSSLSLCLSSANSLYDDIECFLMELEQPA
Technique: protein-binding microarray
Molecule type: double-stranded DNA, one strand shown
Medium: in vitro
Concentration: 2200 nM top
Setting: 60-bp whole probe
With: salmon DNA 0.4 mg/ml
Relative to: random background probes
Direction: higher = stronger binding
Shared flanks, not repeated: GCCTAGCAC … GTCTTGATTCGCTTGACGCTGCTG
Oligonucleotide	fitted relative affinity [z-score]
GACGGTTTCCTACTGCTGAAGTGCTAG	1.93
GACGAACTGGGGCCTGGAGACGTGCTA	-0.494
TCACTTTTGCTTGTTCTTACTGTGCTA	3.38
ATAGGTTTCCTTATCCTTTAGTGCTAG	2.2
AAATGTTTTGTTTTTCATTAGTGCTAG	2.43

Single results of other studies
Substance	target	test	test system	setting	scale	endpoint	value
PhoQ, residues 284 288 289 292 302 303 SLSVQF	PhoP, residues 12 14 15 18 19 AGCRL (Escherichia coli, UniProt P23836)	Sort-seq, item: YFP reporter	E. coli	PhoQ-PhoP variant library, with: 10 µM Mg2+	relative to: high Mg2+ state, higher = stronger signaling	fold induction	2.89

Excerpt of the above (block 3):
Oligonucleotide	fitted relative affinity [z-score]
GACGAACTGGGGCCTGGAGACGTGCTA	-0.494
TCACTTTTGCTTGTTCTTACTGTGCTA	3.38
